Published values from different studies.
Each line is one published result; not all experiments were run side by side. Several values in a cell are separate wells, animals, samples, runs or records. Numbers after ± are the reported error.
sdiA: Regulatory protein SdiA (sdiA, Escherichia coli, UniProt P07026)

Compound	tested on	assay	test system	setting	scale	measurement	value
CI	HOL1 (Arabidopsis thaliana, UniProt Q0WP12, V140T)	substrate, iodide release colorimetric		pH 7.5, sodium phosphate buffer, added: 1 mM SAH		Km	4890 ± 950 µM
[O]=[Sb]([OH])([OH])[c]1ccccc1	Flap endonuclease 1 (Homo sapiens, UniProt P39748)	gel radiotracer		100 nM, 5 min, room temperature, added: single-flap substrate 50 nM		substrate conversion	33%
Nc1ncnc2c1ncn2[C@@H]1O[C@H](COP(=O)(O)OP(=O)(O)O)[C@@H](O)[C@H]1O	Cell cycle histidine kinase CckA, R374A; cytoplasmic region (Caulobacter vibrioides, UniProt Q9X688, R374A)	isothermal titration calorimetry	Caulobacter crescentus	concentration not given, 25 °C, added: without c-di-GMP		binding enthalpy (ΔH)	-2.2 kcal/mol
Cn1cc(-c2ccc3c(c2)CCN3C(=O)Cc2cccc(C(F)(F)F)c2)c2c(N)ncnc21	human coronavirus OC43	virus-induced cell killing	MRC-5	screen		maximum inhibition	14.3%
C=C(CN(C(=O)c1c(C(F)F)nn(C)c1F)C1CC1)c1ccc(Cl)cc1Cl	SDHD/SDHC/SDHB (Sus scrofa, UniProt A5GZW8+D0VWV4+Q007T0)	enzyme activity, inhibitor, DCIP reduction	pig	0.4 µM, added: DCIP 10 µM		reaction velocity	0.00173 µM/s and 0.00197 µM/s
O=C(Cc1ccc2ccccc2c1)N[C@H]1CCOC1=O	sdiA					Emax	109%
CCN(CC)C(=S)SSC(=S)N(CC)CC	mRNA cap guanine-N(7) methyltransferase (RNMT, Homo sapiens, UniProt O43148)	yeast growth	Saccharomyces cerevisiae	30 °C, 1% DMSO, added: 5-FOA		IC50	15.2 µM
CC#C[C@]1(O)CC[C@H]2[C@@H]3CCC4=CC(=O)CCC4=C3[C@@H](c3ccc(N(C)C)cc3)C[C@@]21C	Protein cereblon (CRBN, Homo sapiens, UniProt Q96SW2)	binding, affinity selection mass spectrometry		100 nM, pooled screen	baseline: other proteins	fold change	12.2
COc1ccc2[nH]c3c(c2c1)CCN(C)CC3.Cl	Nicotinic acetylcholine receptor alpha9/alpha10 (Rattus norvegicus, UniProt P43144+Q9JLB5)	ion current, inhibitor, two-electrode voltage clamp	Xenopus laevis oocytes, rat	added: 100 µM acetylcholine		Hill coefficient	1.6 ± 0.1
CC(C)[C@@H](O)CC[C@@H](C)[C@H]1CC[C@H]2[C@@H]3CC=C4C[C@@H](O)CC[C@]4(C)[C@H]3CC[C@]12C	Glutamate NMDA receptor; GRIN1/GRIN2B (GRIN1/GRIN2B, Homo sapiens, UniProt Q05586+Q13224, T550A)	positive allosteric modulator, two-electrode voltage clamp	Xenopus oocytes expressing GluN1-T550A	10 µM, 0.02% cremophor, added: 100 µM glutamate and glycine	baseline: without compound	current response	116 ± 5.2%
CN(C)c1cccc(C(=O)NCC2CCN(c3cc(-c4ccc(Cl)cc4)n[nH]3)CC2)c1	Vero-E6	CellTiter-Glo ATP		concentration not given, 72 h, second round 5-point	baseline: DMSO 0%, hyamine -100%, more negative, more toxic	cytotoxicity efficacy	-28%
CC[C@@H](C)[C@@H](NC(=O)[C@@H](Cc1ccc(O)cc1)NC(=O)[C@H]1CCCN1C(=O)[C@@H](CCCNC(=N)N)NC(=O)[C@H](N)Cc1c[nH]cn1)C(=O)N[C@H](C)C(=O)N[C@H](Cc1c[nH]cn1)C(=O)N[C@H](CCCNC(=N)N)C(=O)N[C@H](CCCCNC(=O)c1cccc(S(=O)(=O)F)c1)C(=O)N[C@H](Cc1ccc(O)cc1)C(=O)N[C@H](CO)C(=O)N[C@H](Cc1ccccc1)C(N)=O	Transferrin receptor protein 1 (Tfrc, Mus musculus, UniProt Q62351)	flow cytometry	RAW264.7	2 h, pH 6, replicate 2, unit not given	baseline: 0 h	surface TFRC expression	0.562
O=c1cc(CSc2ccc(N=Cc3ccccc3)cc2)occ1O	PPO3 (Agaricus bisporus, UniProt C7FF04)	fluorescence quenching				Stern-Volmer constant	92500 L/mol
Oc1ccc(-c2cccc(Cl)c2)cc1Cl	Estrogen receptor (ESR1, Homo sapiens, UniProt P03372)	reporter gene, agonist	T47D.luc	24 h	baseline: estradiol	EC25	5 µM
CCCN1CCN(CCCNC(=O)c2cc3c(Cl)nc4ccccc4c3s2)CC1	Vero-E6	CellTiter-Glo ATP		concentration not given, 72 h, second round 5-point	baseline: DMSO 0%, hyamine -100%, more negative, more toxic	cytotoxicity efficacy	-17.1%
CCCCC/C=C\C/C=C\C/C=C\C/C=C\CCCC(=O)O	Bifunctional cytochrome P450/NADPH--P450 reductase (cyp102A1, Bacillus megaterium, UniProt P14779)	substrate, refers to: 14,15-EET		30 s, added: NADPH 0.5 mM		formation rate	1.1 ± 0.21 µmol/min/nmol BM3
COc1ncccc1-c1cnn2ccc(N3CCN(C(=O)OC(C)C)CC3)nc12	Serine/threonine-protein kinase MRCK gamma (CDC42BPG, Homo sapiens, UniProt Q6DT37)	KINOMEscan binding		1 µM	baseline: untreated control	remaining binding	97%
C[C@H]1CN(c2n[nH]c3nc(N[C@H]4CC[C@H](NS(=O)(=O)CCC(F)(F)F)CC4)ncc23)CCO1	AP-2 complex subunit sigma (Homo sapiens, UniProt P53680)	Kinobeads competition, refers to: AP2S1		0.8 µM, unit not given	baseline: vehicle	remaining binding	1.13
O=C(Nc1cnccc1Cl)N1CCN(Cc2ccc3c(c2)OC(F)(F)O3)CC1	Histamine H4 receptor (HRH4, Homo sapiens, UniProt Q9H3N8)	radioligand binding		50 µM, added: [3H]histamine		inhibition of binding	10%
O=C(O)COP(=O)(O)O	Triosephosphate isomerase (TPI1, Gallus gallus, UniProt P00940, G210A/S211G/Y208T)	enzyme activity, competitive inhibitor, GPDH/NADH-coupled		pH 4.9, 25 °C, ionic strength 0.1 NaCl, added: glyceraldehyde 3-phosphate substrate	baseline: mutant over wild type	Ki ratio	1390

Compound	tested on	assay	test system	setting	scale	measurement	value
O=C1C(=O)c2ccccc2-c2ccccc21	9,11-endoperoxide prostaglandin H2 reductase (Trypanosoma brucei brucei, UniProt Q9GV41)	substrate	Trypanosoma brucei			Km	0.42 µM
NS(=O)(=O)C(F)(F)C(F)(F)C(F)(F)C(F)(F)C(F)(F)C(F)(F)C(F)(F)C(F)(F)F	Fatty acid-binding protein, liver (FABP1, Homo sapiens, UniProt P07148)	affinity selection mass spectrometry		100 nM, added: pooled compounds	baseline: other proteins	binding fold change	670
CC(C)(COP(=O)(O)O)[C@@H](O)C(=O)NCCCOP(=O)(O)OC[C@H]1O[C@@H](n2ccc(N)nc2=O)[C@H](O)[C@@H]1O	phosphopantothenoylcysteine synthetase	enzyme activity			baseline: IC50 human over bacterial	selectivity ratio	145 to 1000 fold
[2H]c1c([2H])c([C@]2([2H])CCCN2C(=O)C(C)(C)Oc2ccc3cn[nH]c3c2)c([2H])c([2H])c1C([2H])([2H])[2H]	Cyclin-dependent kinase 3 (CDK3, Homo sapiens, UniProt Q00526)	KINOMEscan		1 µM	baseline: DMSO control	remaining binding	78%
CC=O	ADH1 (Saccharomyces cerevisiae, UniProt P00330, H49Q)	enzyme activity, substrate		pH 7.3, 30 °C		kcat/Km	250000 M⁻¹ s⁻¹
CCN(CC)CCCC[C@H](NC(=O)[C@H](CC(C)C)NC(=O)[C@H](C)NC(=O)[C@H](Cc1ccccc1)NC(=O)c1ccc(C(C)(C)C)cc1)C(=O)N[C@@H](CO)C(=O)OC	Neurotensin receptor type 1 (NTSR1, Homo sapiens, UniProt P30989)	radioligand binding		10 µM		specific binding	110%
CCCCCCCC(=O)CC(=O)N[C@H]1CCOC1=O	sdiA					Emax	86.6%
O=C(O)C(F)(F)C(F)(F)C(F)(F)C(F)(F)C(F)(F)C(F)(F)C(F)(F)F	Solute carrier family 22 member 6 (SLC22A6, Homo sapiens, UniProt Q4U2R8)	uptake, substrate, two-transporter equation fit	HEK293 cells stably expressing SLC22A6	2.5 min, 37 °C		Jmax	636 ± 101 pmol/min/mg protein
COc1cc(N)c(Cl)cc1C(=O)NC1CN2CCC1CC2 (stereo not shown)	ADGRG2 (Homo sapiens, UniProt Q8IZP9)	β-arrestin recruitment, TANGO luminescence, refers to: GPR64		concentration not given	baseline: basal luminescence	log2 fold change	-0.00285
Nc1ccncc1	Glutamate receptor 2 (Homo sapiens, UniProt P42262)	ion current, agonist, automated patch clamp	HEK293	10 µM		activation	3%
CCOC(=O)CC(SP(=O)(OC)OC)C(=O)OCC (stereo not shown)	uncharacterized protein (Anopheles coluzzii, UniProt A0A6E8VQK1)	enzyme activity, inhibitor	Sf9 cell homogenate	3.44 µM, 0.1667 h, added: α-naphthyl acetate substrate	baseline: no inhibitor	remaining activity	5%
COc1ccc(N2C(=O)N(c3c(C)cccc3Cl)Cc3cnc(Nc4ccc(C5CCN(C)CC5)cc4OC)nc32)nc1	1-phosphatidylinositol 3-phosphate 5-kinase (PIKFYVE, Homo sapiens, UniProt Q9Y2I7)	kinase activity		0.5 µM		inhibition	10%
O=C(O)CCCCN(CCc1cc(F)ccc1OCc1ccc(-c2ccc(C(F)(F)F)cc2)cc1)Cc1ccc(C(=O)O)cc1	Gucy1b1, heme-free (Rattus norvegicus, UniProt P20595)		A7r5	1 µM, compound alone, added: ODQ 10 µM pretreatment	baseline: untreated control	cGMP level	7.06 ± 2.02 fold
Nc1ccc(O)c(C(=O)O)c1	ppk (Escherichia coli, UniProt P0A7B1, E245K)	inhibitor		1 mM	baseline: DMSO	polyphosphate synthesis	inhibited
O=C(O)C(/C=C/c1c(Cl)cccc1Cl)=N\Nc1nc(-c2ccc(F)cc2)cs1	Acetylcholinesterase (ache, Electrophorus electricus, UniProt O42275)	Ellman			baseline: IC50 BChE over IC50 AChE	selectivity index	13.5
CN1CCN(c2cc(-c3ccncc3)c(-c3ccc4ccccc4c3)nn2)CC1	Adenosine receptor A1 (ADORA1, Homo sapiens, UniProt P30542)	agonist, FLIPR		12.5 µM		activation	0%
O=C(c1ccc(Cl)cc1)N1CCN2C(=O)N(OC(=O)N3CCOc4ccccc43)C(=O)C2C1 (stereo not shown)	Lysophospholipase-like protein 1 (LYPLAL1, Homo sapiens, UniProt Q5VWZ2)	MS-based ABPP	SW-620 conditioned medium	10 µM, 1 h, 37 °C	baseline: compound over DMSO, lower = more inhibition	peptide ratio	1.1 and 1.03 and 1.05 and 1
Oc1c(Br)cc(Br)cc1Oc1ccc(Br)cc1Br	Sulfotransferase 1E1 (SULT1E1, Homo sapiens, UniProt P49888)	sulfonation, substrate				apparent Vmax	13.9 nmol/min/mg protein
CC(C)(O)CNc1nc(Nc2ccnc(C(F)(F)F)c2)nc(-c2cccc(C(F)(F)F)n2)n1	human coronavirus OC43	virus-induced cell killing	MRC-5	screen		maximum inhibition	54.5%
O=C(NNC(=O)c1csnn1)c1ccc(Cl)cc1	Acetyl-CoA synthetase (Cryptococcus neoformans, UniProt J9VFT1)			391 nM		remaining activity	90.4%

A few entries again:
Compound	tested on	assay	test system	setting	scale	measurement	value
CCOC(=O)CC(SP(=O)(OC)OC)C(=O)OCC (stereo not shown)	uncharacterized protein (Anopheles coluzzii, UniProt A0A6E8VQK1)	enzyme activity, inhibitor	Sf9 cell homogenate	3.44 µM, 0.1667 h, added: α-naphthyl acetate substrate	baseline: no inhibitor	remaining activity	5%
CC(C)(COP(=O)(O)O)[C@@H](O)C(=O)NCCCOP(=O)(O)OC[C@H]1O[C@@H](n2ccc(N)nc2=O)[C@H](O)[C@@H]1O	phosphopantothenoylcysteine synthetase	enzyme activity			baseline: IC50 human over bacterial	selectivity ratio	145 to 1000 fold
COc1ccc(N2C(=O)N(c3c(C)cccc3Cl)Cc3cnc(Nc4ccc(C5CCN(C)CC5)cc4OC)nc32)nc1	1-phosphatidylinositol 3-phosphate 5-kinase (PIKFYVE, Homo sapiens, UniProt Q9Y2I7)	kinase activity		0.5 µM		inhibition	10%
CC[C@@H](C)[C@@H](NC(=O)[C@@H](Cc1ccc(O)cc1)NC(=O)[C@H]1CCCN1C(=O)[C@@H](CCCNC(=N)N)NC(=O)[C@H](N)Cc1c[nH]cn1)C(=O)N[C@H](C)C(=O)N[C@H](Cc1c[nH]cn1)C(=O)N[C@H](CCCNC(=N)N)C(=O)N[C@H](CCCCNC(=O)c1cccc(S(=O)(=O)F)c1)C(=O)N[C@H](Cc1ccc(O)cc1)C(=O)N[C@H](CO)C(=O)N[C@H](Cc1ccccc1)C(N)=O	Transferrin receptor protein 1 (Tfrc, Mus musculus, UniProt Q62351)	flow cytometry	RAW264.7	2 h, pH 6, replicate 2, unit not given	baseline: 0 h	surface TFRC expression	0.562
CN1CCN(c2cc(-c3ccncc3)c(-c3ccc4ccccc4c3)nn2)CC1	Adenosine receptor A1 (ADORA1, Homo sapiens, UniProt P30542)	agonist, FLIPR		12.5 µM		activation	0%
